# Results from different studies.
# Numbered parts are unrelated; each lists some results of a single study. Positions count from the first letter of the parent shown.
# UniProt Q9C5W9, sequence (whole entry, looked up): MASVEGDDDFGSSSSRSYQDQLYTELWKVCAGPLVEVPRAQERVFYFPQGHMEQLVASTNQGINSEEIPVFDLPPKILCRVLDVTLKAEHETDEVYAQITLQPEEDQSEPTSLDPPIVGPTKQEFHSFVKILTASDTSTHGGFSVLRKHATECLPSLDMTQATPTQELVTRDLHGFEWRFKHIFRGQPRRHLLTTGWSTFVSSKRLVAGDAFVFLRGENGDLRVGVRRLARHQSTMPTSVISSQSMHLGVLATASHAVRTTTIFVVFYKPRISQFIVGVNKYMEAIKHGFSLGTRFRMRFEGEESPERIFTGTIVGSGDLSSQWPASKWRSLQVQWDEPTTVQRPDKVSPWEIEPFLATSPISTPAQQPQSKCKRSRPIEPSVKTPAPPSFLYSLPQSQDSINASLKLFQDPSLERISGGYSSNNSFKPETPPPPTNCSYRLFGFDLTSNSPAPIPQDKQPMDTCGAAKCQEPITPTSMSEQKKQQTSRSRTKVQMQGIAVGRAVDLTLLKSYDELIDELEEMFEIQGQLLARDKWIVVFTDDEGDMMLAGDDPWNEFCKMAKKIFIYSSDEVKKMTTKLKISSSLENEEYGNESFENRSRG
# UniProt P61077, sequence (whole entry, looked up): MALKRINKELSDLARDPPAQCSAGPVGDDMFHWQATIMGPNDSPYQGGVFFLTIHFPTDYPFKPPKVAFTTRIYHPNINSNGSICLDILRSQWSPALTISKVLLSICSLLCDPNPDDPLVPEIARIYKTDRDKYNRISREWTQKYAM
# UniProt Q84WU6, sequence (whole entry, looked up): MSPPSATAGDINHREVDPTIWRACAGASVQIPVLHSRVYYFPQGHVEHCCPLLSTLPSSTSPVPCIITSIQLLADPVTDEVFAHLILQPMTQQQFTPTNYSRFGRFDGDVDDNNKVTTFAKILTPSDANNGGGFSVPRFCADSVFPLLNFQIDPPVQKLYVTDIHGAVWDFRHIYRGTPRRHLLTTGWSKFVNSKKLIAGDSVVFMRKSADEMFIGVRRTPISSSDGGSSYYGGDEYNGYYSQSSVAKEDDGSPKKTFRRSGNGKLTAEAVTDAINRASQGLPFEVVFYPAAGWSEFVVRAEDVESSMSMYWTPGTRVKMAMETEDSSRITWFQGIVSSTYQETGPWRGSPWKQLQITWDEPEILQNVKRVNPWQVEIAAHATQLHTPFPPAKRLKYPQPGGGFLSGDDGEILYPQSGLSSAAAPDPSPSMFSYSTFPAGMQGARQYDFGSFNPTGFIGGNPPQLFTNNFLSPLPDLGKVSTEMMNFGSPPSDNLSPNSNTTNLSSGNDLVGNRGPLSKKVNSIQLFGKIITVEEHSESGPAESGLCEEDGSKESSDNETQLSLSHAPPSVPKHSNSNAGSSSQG

# Study 1
# Target: Sal-like protein 4, full length isoform A (SALL4, Homo sapiens, UniProt Q9UJQ4, residues 1-1053)
# UniProt Q9UJQ4, sequence (whole entry, looked up): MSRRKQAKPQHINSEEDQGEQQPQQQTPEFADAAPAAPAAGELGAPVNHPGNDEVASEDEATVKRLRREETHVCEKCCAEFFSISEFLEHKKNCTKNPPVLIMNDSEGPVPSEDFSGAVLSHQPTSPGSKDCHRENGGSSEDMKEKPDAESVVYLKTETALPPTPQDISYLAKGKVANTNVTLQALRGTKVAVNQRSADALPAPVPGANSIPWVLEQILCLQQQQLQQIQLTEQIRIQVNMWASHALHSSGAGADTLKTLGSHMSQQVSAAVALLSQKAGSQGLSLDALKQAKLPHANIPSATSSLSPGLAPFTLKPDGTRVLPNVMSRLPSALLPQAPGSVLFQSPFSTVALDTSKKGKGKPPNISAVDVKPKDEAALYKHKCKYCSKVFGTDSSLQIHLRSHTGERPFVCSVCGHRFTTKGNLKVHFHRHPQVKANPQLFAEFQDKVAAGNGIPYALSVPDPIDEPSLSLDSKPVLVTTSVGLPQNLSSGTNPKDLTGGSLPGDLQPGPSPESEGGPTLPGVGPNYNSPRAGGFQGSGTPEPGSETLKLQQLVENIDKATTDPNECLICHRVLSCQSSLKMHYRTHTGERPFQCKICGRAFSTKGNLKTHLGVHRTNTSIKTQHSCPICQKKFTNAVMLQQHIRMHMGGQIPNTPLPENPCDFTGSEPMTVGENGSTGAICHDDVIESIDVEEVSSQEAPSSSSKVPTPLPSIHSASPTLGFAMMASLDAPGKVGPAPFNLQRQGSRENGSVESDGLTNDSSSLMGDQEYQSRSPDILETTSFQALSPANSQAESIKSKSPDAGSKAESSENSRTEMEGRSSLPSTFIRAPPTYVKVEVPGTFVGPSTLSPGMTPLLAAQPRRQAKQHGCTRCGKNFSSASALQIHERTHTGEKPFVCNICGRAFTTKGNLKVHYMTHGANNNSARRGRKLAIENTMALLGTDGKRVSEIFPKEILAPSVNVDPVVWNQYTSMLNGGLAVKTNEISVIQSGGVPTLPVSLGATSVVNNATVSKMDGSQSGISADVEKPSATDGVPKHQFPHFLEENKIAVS
# Method: universal PBM
# Form: double-stranded DNA, one strand shown
# Medium: in vitro
# Tested at: 600 nM
# Notes: 8-mer, flanks averaged, mean of replicates
# Reading: higher = stronger binding
Sequence,E-score
AATGTCGT,0.0703
ACACTGAA,0.203
CGCGTTTC,-0.286
ATCTCAAA,0.271
ACGCATTG,-0.046
CCTCCATC,-0.199
GCTGAAAC,0.0299
ATTAGGGA,0.157

# Study 2
# Target: RING finger protein unkempt homolog, zinc fingers 1-6, GST-SBP tag (UNK, Homo sapiens, UniProt Q9C0B0, residues 30-357)
# UniProt Q9C0B0, sequence (30-357, looked up): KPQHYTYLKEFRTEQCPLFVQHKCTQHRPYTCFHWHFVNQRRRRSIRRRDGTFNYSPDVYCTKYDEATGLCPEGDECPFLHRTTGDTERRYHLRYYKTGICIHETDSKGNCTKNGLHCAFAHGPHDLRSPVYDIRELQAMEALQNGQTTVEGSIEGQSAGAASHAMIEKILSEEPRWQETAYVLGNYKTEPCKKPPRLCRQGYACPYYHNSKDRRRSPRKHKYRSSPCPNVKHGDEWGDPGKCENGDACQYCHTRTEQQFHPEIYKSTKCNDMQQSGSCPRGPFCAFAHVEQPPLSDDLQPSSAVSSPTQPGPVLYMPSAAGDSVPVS
# Method: RNA Bind-n-Seq
# Form: RNA
# Medium: in vitro
# Tested at: not given
# Notes: RNA with constant flanks, human-mouse chimeric sites, ends assumed
# Baseline: input RNA pool
# Reading: higher = stronger binding
Sequence,bound/input enrichment [ratio]
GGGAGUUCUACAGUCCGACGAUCUACUCAACUUUCUUGCCACAUUUUGAAUUCCAAGAUGUUAUUCCUCCAGAUGACUUCCUAACGAGUGAUGAAGAGCAAGAUUUGGUUUUAUUUGGAAGUUUGAGAGGACAAGUUGUUGGACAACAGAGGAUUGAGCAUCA,0.17
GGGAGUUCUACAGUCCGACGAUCCAGCGCCGAGGCCGCGGUUUCCCCCUGGGCCUCCCCAGCAGCAGCCAUGGGCAUCAAAUUUUUAGAAGUUAUCAAACCUUUCUGUGCAGUUCUACCAGAAAUUCAGAAGCCUGAAAGGAACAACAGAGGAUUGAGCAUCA,1.42
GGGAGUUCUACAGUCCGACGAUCUCAUUUUUCUCUUUUCUGAUCGUCAGGUAGGAAAAGCAGAUUAGACUGGUUGUAAGAAAAACAGAAGCCAUGUUUCGAAGACCUGUGUUACAGGUAUUUCGUCAGUUUGUAAGACAUGAGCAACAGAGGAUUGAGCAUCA,0.549
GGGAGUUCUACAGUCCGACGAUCAGAUUCCCCCUCCUGAGACCUCCUCCGAAAUUGGCAUCUCUUACAGAUGCCUCAUCCCCUGUUAGCGUUUUAGUUUGGACCACCCAGCCUUGGACAAUUCCCGCCAACCAGGCAAUUUGCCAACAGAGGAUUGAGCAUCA,1.64
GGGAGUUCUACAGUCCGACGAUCGUCAACAGCUGCCUCAACCCCAUCCUCUACGCCUUCCUGGAUGAGAACUUCAAGGCCUGCUUCCGCAAGUUCUGCUGUGCUUCUGCCCUGCACCGGGACGUGCAGGUGUCUGACCGCGUGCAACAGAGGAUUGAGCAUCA,0.283
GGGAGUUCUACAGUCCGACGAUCUGUAACUCUUAUCUGUAAAAGGUUUCUCCCCUACUGUCAAAAAAUAUGCAUGUAUAGUAAUUAGGACUUCAUUCCUCCAUGUUUUCUUCCCUUAUCUUACUGUCAUUGUCCUUAAACCUUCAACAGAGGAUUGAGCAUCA,1.38
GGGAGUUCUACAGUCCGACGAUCCUUAAUGUUAAUAUUUUUGAAUAAAUGAAGCUAAAAUUUUGCUUUCUGGUACAACACGCAUUAAUAAAAGGUUAAGUUUUGUUUUCCCUCCACUGAAUAUUUAACAUCUCAGAAAAAAACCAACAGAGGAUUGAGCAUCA,0.661
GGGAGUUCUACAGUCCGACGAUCAAAGUGGACUAUGGCGAGUACAUGGAUAAAAACAAUGUGAGGCGACAAGCAACAACAAUCAUAGCUGAUAACAUUAUAUUUCUGAGUGACCAGACAAAAGAAAAGGCAUAGAACGGAUGACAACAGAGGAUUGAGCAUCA,1.94

# Other studies, line by line
# P1: viral docking peptide; KGVKRKLFAEDSS; partner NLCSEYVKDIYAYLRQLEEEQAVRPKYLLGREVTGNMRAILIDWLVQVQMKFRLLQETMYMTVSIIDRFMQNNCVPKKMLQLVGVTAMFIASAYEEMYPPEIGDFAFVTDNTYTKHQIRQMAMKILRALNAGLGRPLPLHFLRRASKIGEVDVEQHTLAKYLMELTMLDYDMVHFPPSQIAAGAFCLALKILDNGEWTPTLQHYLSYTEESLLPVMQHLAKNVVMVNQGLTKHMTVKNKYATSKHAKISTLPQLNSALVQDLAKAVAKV
Molecule,target or system,test,system,setting,scale,endpoint,value
YQNEVDDDLVCHICLQPLLQPLDTPCGHTFCYKCLRNFLQEKDFCPLDRKRLHFKLCKK (LNX2 RING domain (UniProt Q8N448)),UBE2D3 UBC core domain (UniProt P61077),yeast two-hybrid,yeast,mostly zero background,"baseline: not given, higher = stronger interaction",lacZ reporter activity,0
P1 L7K,"CCNB1, cyclin fold, Cln2 fusion (human)","yeast growth competition, sequencing",yeast,strong parent motif,"baseline: not given, higher = stronger binding",normalised enrichment score,0.796
"ARF17 (Arabidopsis thaliana, UniProt Q84WU6)","ARF18 482-602 (Arabidopsis thaliana, UniProt Q9C5W9)",two-hybrid,,weak activation fusion,"baseline: out of 4 tests, higher = firmer interaction",positive tests,0
"HSPA9 (Homo sapiens, UniProt P38646)","CEP192 (Homo sapiens, UniProt Q8TEP8)",cross-linking MS,cells,with: BSPNO,,cross-linked residues,K206 to K1936

# Some of these lines once more (study 2):
Sequence,bound/input enrichment [ratio]
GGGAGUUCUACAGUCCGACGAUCUACUCAACUUUCUUGCCACAUUUUGAAUUCCAAGAUGUUAUUCCUCCAGAUGACUUCCUAACGAGUGAUGAAGAGCAAGAUUUGGUUUUAUUUGGAAGUUUGAGAGGACAAGUUGUUGGACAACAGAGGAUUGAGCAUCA,0.17
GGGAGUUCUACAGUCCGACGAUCCUUAAUGUUAAUAUUUUUGAAUAAAUGAAGCUAAAAUUUUGCUUUCUGGUACAACACGCAUUAAUAAAAGGUUAAGUUUUGUUUUCCCUCCACUGAAUAUUUAACAUCUCAGAAAAAAACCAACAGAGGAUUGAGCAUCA,0.661
